{"data": "Measured values pooled from the literature", "Tumor necrosis factor receptor superfamily member 9/Nectin-4": "Tumor necrosis factor receptor superfamily member 9/Nectin-4 (Homo sapiens, UniProt Q07011+Q96NY8)", "sdiA": "Regulatory protein SdiA (sdiA, Escherichia coli, UniProt P07026)", "H2-D1 17": "H-2 class I histocompatibility antigen, D-B alpha chain, 17 (H2-D1, Mus musculus, UniProt P01899)", "note": "Lines come from different studies, so protocols differ. Numbers after ± are the reported error."}
{"Compound": "CCCC[C@@H]1NC(=O)[C@H](Cc2ccc(O)cc2)NC(=O)[C@@H]2CCCN2C(=O)[C@H](CC(=O)O)NC(=O)[C@H](C)NC(=O)[C@H](Cc2ccccc2)NC(=O)[C@@H]2CSCCC(=O)N3CN(CN(C3)C(=O)CCSC[C@H](NC(C)=O)C(=O)N[C@@H](CC(C)(C)C)C(=O)N3CCC[C@H]3C(=O)N[C@@H](CCC(=O)O)C(=O)N[C@H](CCCCNC(=O)CCc3cn(CCOCCOCCOCCOCCOCCC(=O)N[C@H]4CSCCC(=O)N5CN6CN(C5)C(=O)CCSC[C@H](NC(=O)[C@@H](CC(=O)O)NC(=O)[C@H](Cc5cccc7ccccc57)NC(=O)[C@@H]5CCCN5C4=O)C(=O)N[C@@H](CCSC)C(=O)N[C@@H](CCCCNC(=N)N)C(=O)N[C@@H](CC(=O)O)C(=O)N[C@@H](Cc4c[nH]c5ccccc45)C(=O)N[C@@H](CO)C(=O)N[C@@H]([C@@H](C)O)C(=O)N4CCC[C@H]4C(=O)N4C[C@H](O)C[C@H]4C(=O)N[C@@H](Cc4c[nH]c5ccccc45)C(=O)N[C@H](C(N)=O)CSCCC6=O)nn3)C(=O)N3CCC[C@H]3C(=O)N[C@@H](Cc3ccc(O)cc3)C(=O)N2)C(=O)CCSCCNC1=O", "target": "Tumor necrosis factor receptor superfamily member 9/Nectin-4", "assay": "reporter gene, agonist", "system": "HT-1376 coculture with reporter cells", "EC50": "3.39 nM"}
{"Compound": "COc1ccc(C[C@@H](C)NC[C@H](O)c2ccc(O)c3[nH]c(=O)ccc23)cc1", "target": "ADRB1 (Meleagris gallopavo, UniProt P07700, A282L/C116L/F327A/F338M/M90V/R68S/Y227A)", "assay": "CRE-SPAP reporter gene (cAMP), agonist", "system": "CHO cells expressing ADRB1 β6-m23", "EC50": "4.27 nM"}
{"Compound": "CCCCCCCC(=O)CC(=O)N[C@H]1CCOC1=O", "target": "sdiA", "EC50": "3.89 nM"}
{"Compound": "CC[C@H](C)[C@H](NC(=O)[C@H](C)NC(=O)[C@H](C)NC(=O)[C@@H](NC(=O)[C@H](C)NC(=O)[C@H](CC(N)=O)NC(=O)[C@H](Cc1c[nH]c2ccccc12)NC(=O)[C@@H](NC(=O)[C@H](CO)NC(=O)[C@@H](N)CO)C(C)C)[C@@H](C)O)C(=O)O", "target": "H2-D1 17", "assay": "H-2D stabilisation, flow cytometry", "system": "RMA-S TAP-deficient", "conditions": "overnight", "EC50": "4000 nM"}
{"Compound": "CCCCC/C=C\\C/C=C\\C/C=C\\C/C=C\\CCCC(=O)NCCO", "target": "Trpv1 (Mus musculus, UniProt Q704Y3, N552L)", "assay": "ion current, agonist, whole-cell patch clamp", "conditions": "24 °C, N552L, +80 mV", "EC50": "6610 ± 2350 nM"}
{"Compound": "CC[C@H](C)[C@H](NC(=O)[C@H](C)NC(=O)[C@@H](NC(=O)[C@@H](NC(=O)[C@H](C)NC(=O)[C@H](CC(N)=O)NC(=O)[C@H](Cc1c[nH]c2ccccc12)NC(=O)[C@H](C)NC(=O)[C@H](CO)NC(=O)[C@@H](N)CO)[C@@H](C)O)[C@@H](C)O)C(=O)O", "target": "H2-D1 17", "assay": "H-2D stabilisation, flow cytometry", "system": "RMA-S TAP-deficient", "conditions": "overnight", "EC50": "25000 nM"}
{"Compound": "CCCC[C@@H]1NC(=O)[C@H](Cc2ccc(O)cc2)NC(=O)[C@@H]2CCCN2C(=O)[C@H](CCC(=O)O)NC(=O)[C@H](C)NC(=O)[C@H](Cc2ccccc2)NC(=O)[C@@H]2CSCCC(=O)N3CN(CN(C3)C(=O)CCSC[C@H](NC(C)=O)C(=O)N[C@@H](CC(C)(C)C)C(=O)N3CCC[C@H]3C(=O)N[C@@H](CCC(=O)O)C(=O)N[C@H](CCCCNC(=O)CCc3cn(CCOCCOCCOCCOCCOCCC(=O)N[C@H]4CSCCC(=O)N5CN6CN(C5)C(=O)CCSC[C@H](NC(=O)[C@@H](CC(=O)O)NC(=O)[C@H](Cc5cccc7ccccc57)NC(=O)[C@@H]5CCCN5C4=O)C(=O)N[C@@H](CCSC)C(=O)N[C@@H](CCCCNC(=N)N)C(=O)N[C@@H](CC(=O)O)C(=O)N[C@@H](Cc4c[nH]c5ccccc45)C(=O)N[C@@H](CO)C(=O)N[C@@H]([C@@H](C)O)C(=O)N4CCC[C@H]4C(=O)N4C[C@H](O)C[C@H]4C(=O)N[C@@H](Cc4c[nH]c5ccccc45)C(=O)N[C@H](C(N)=O)CSCCC6=O)nn3)C(=O)N3CCC[C@H]3C(=O)N[C@@H](Cc3ccc(O)cc3)C(=O)N2)C(=O)CCSC[C@@H](C(N)=O)NC1=O", "target": "Tumor necrosis factor receptor superfamily member 9/Nectin-4", "assay": "reporter gene, agonist", "system": "HT-1376 coculture with reporter cells", "EC50": "34 nM"}
{"Compound": "CC[C@H](C)[C@H](NC(=O)CNC(=O)[C@@H](NC(=O)[C@@H](NC(=O)[C@H](C)NC(=O)[C@H](CC(N)=O)NC(=O)[C@H](Cc1c[nH]c2ccccc12)NC(=O)[C@@H](NC(=O)[C@H](CO)NC(=O)[C@@H](N)CO)C(C)C)[C@@H](C)O)[C@@H](C)O)C(=O)O", "target": "H2-D1 17", "assay": "H-2D stabilisation, flow cytometry", "system": "RMA-S TAP-deficient", "conditions": "overnight", "EC50": "25000 nM"}
{"Compound": "CC/C(=C(\\c1ccc(O)cc1)c1ccc(OCCN(C)C)cc1)c1ccccc1", "target": "CNR2 (Homo sapiens, UniProt P34972)", "assay": "cAMP level increase", "system": "CHO cells", "EC50": "5800 ± 300 nM"}
{"Compound": "CCCC[C@@H]1NC(=O)[C@H](Cc2ccc(O)cc2)NC(=O)[C@@H]2CCCN2C(=O)[C@H](CC(=O)O)NC(=O)[C@H](C)NC(=O)[C@H](Cc2ccccc2)NC(=O)[C@@H]2CSCCC(=O)N3CN(CN(C3)C(=O)CCSCCC(=O)N[C@@H](CC(C)(C)C)C(=O)N3CCC[C@H]3C(=O)N[C@@H](CCC(=O)O)C(=O)N[C@H](CCCCNC(=O)CCc3cn(CCOCCOCCOCCOCCOCCC(=O)N[C@H]4CSCCC(=O)N5CN6CN(C5)C(=O)CCSC[C@H](NC(=O)[C@@H](CC(=O)O)NC(=O)[C@H](Cc5cccc7ccccc57)NC(=O)[C@@H]5CCCN5C4=O)C(=O)N[C@@H](CCSC)C(=O)N[C@@H](CCCCNC(=N)N)C(=O)N[C@@H](CC(=O)O)C(=O)N[C@@H](Cc4c[nH]c5ccccc45)C(=O)N[C@@H](CO)C(=O)N[C@@H]([C@@H](C)O)C(=O)N4CCC[C@H]4C(=O)N4C[C@H](O)C[C@H]4C(=O)N[C@@H](Cc4c[nH]c5ccccc45)C(=O)N[C@H](C(N)=O)CSCCC6=O)nn3)C(=O)N3CCC[C@H]3C(=O)N[C@@H](Cc3ccc(O)cc3)C(=O)N2)C(=O)CCSCCNC1=O", "target": "Tumor necrosis factor receptor superfamily member 9/Nectin-4", "assay": "reporter gene, agonist", "system": "HT-1376 coculture with reporter cells", "EC50": "5.55 nM"}
{"Compound": "CCCCCC(=O)N[C@H]1CCOC1=O", "target": "sdiA", "EC50": "2.46 nM"}
{"Compound": "CCCC[C@@H]1NC(=O)[C@H](Cc2ccc(O)cc2)NC(=O)[C@@H]2CCCN2C(=O)[C@H](CC(=O)O)NC(=O)[C@H](C)NC(=O)[C@H](Cc2ccccc2)NC(=O)[C@@H]2CSCCC(=O)N3CN(CN(C3)C(=O)CCSC[C@@H](C(=O)N[C@@H](C)C(N)=O)NC1=O)C(=O)CCSC[C@H](NC(C)=O)C(=O)N[C@@H](CC(C)(C)C)C(=O)N1CCC[C@H]1C(=O)N[C@@H](CCC(=O)O)C(=O)N[C@H](CCCCNC(=O)CCc1cn(CCOCCOCCOCCOCCOCCC(=O)N[C@H]3CSCCC(=O)N4CN5CN(C4)C(=O)CCSC[C@H](NC(=O)[C@@H](CCC(=O)O)NC(=O)[C@H](Cc4cccc6ccccc46)NC(=O)[C@@H]4CCCN4C3=O)C(=O)N[C@@H](CC(C)C)C(=O)N[C@@H](CCCCNC(=N)N)C(=O)N[C@@H](CC(=O)O)C(=O)N[C@@H](Cc3c[nH]c4ccccc34)C(=O)N[C@@H](CO)C(=O)N[C@@H]([C@@H](C)O)C(=O)N3CCC[C@H]3C(=O)N3C[C@H](O)C[C@H]3C(=O)N[C@@H](Cc3c[nH]c4ccccc34)C(=O)N[C@H](C(N)=O)CSCCC5=O)nn1)C(=O)N1CCC[C@H]1C(=O)N[C@@H](Cc1ccc(O)cc1)C(=O)N2", "target": "Tumor necrosis factor receptor superfamily member 9/Nectin-4", "assay": "reporter gene, agonist", "system": "HT-1376 coculture with reporter cells", "EC50": "2.21 nM"}
{"Compound": "CCCCCC(=O)CC(=O)N[C@H]1CCOC1=O", "target": "sdiA", "EC50": "0.78 nM"}
{"note": "Repeated from above:"}
{"Compound": "CCCC[C@@H]1NC(=O)[C@H](Cc2ccc(O)cc2)NC(=O)[C@@H]2CCCN2C(=O)[C@H](CC(=O)O)NC(=O)[C@H](C)NC(=O)[C@H](Cc2ccccc2)NC(=O)[C@@H]2CSCCC(=O)N3CN(CN(C3)C(=O)CCSCCC(=O)N[C@@H](CC(C)(C)C)C(=O)N3CCC[C@H]3C(=O)N[C@@H](CCC(=O)O)C(=O)N[C@H](CCCCNC(=O)CCc3cn(CCOCCOCCOCCOCCOCCC(=O)N[C@H]4CSCCC(=O)N5CN6CN(C5)C(=O)CCSC[C@H](NC(=O)[C@@H](CC(=O)O)NC(=O)[C@H](Cc5cccc7ccccc57)NC(=O)[C@@H]5CCCN5C4=O)C(=O)N[C@@H](CCSC)C(=O)N[C@@H](CCCCNC(=N)N)C(=O)N[C@@H](CC(=O)O)C(=O)N[C@@H](Cc4c[nH]c5ccccc45)C(=O)N[C@@H](CO)C(=O)N[C@@H]([C@@H](C)O)C(=O)N4CCC[C@H]4C(=O)N4C[C@H](O)C[C@H]4C(=O)N[C@@H](Cc4c[nH]c5ccccc45)C(=O)N[C@H](C(N)=O)CSCCC6=O)nn3)C(=O)N3CCC[C@H]3C(=O)N[C@@H](Cc3ccc(O)cc3)C(=O)N2)C(=O)CCSCCNC1=O", "target": "Tumor necrosis factor receptor superfamily member 9/Nectin-4", "assay": "reporter gene, agonist", "system": "HT-1376 coculture with reporter cells", "EC50": "5.55 nM"}
{"Compound": "CCCCCC(=O)N[C@H]1CCOC1=O", "target": "sdiA", "EC50": "2.46 nM"}
